Measured values of several laboratories.
Each numbered part is a random draw from the data of one study; scales do not carry over between parts.

Sample 1 — read-out: enzyme activity; action: inhibitor; setting: without DTT
Target: Replicase polyprotein 1ab, main protease (rep, Severe acute respiratory syndrome coronavirus 2, UniProt P0DTD1)
SMILES | IC50 [µM]
O=C(O)c1c(Cl)c(Cl)c(Cl)c(Cl)c1-c1c2cc(I)c(=O)c(I)c-2oc2c(I)c(O)c(I)cc12 | > 20
CC(=O)[O][Pt]([NH2])([Cl])([Cl])([NH]C1CCCCC1)[O]C(C)=O | 5.7
Oc1cc(CNC(=S)/C=C/c2cc(O)c(O)c(Br)c2)cc(O)c1O | 0.5
CNC(=O)ON(C(C)=O)C(=O)NC | 1.3
COCCCOc1ccnc(C[S+]([O-])c2nc3ccccc3[nH]2)c1C (stereo not drawn) | 0.74

Sample 2 — cell line: HEK-293T; read-out: pseudovirus infection; organism: VSV pseudotyped with SARS-CoV-2 spike; tested at: 10 µM; time: 16 h; reference: vehicle-treated
SMILES | GFP-positive cells [%]
CN(C)/N=N/c1[nH]cnc1C(N)=O | 81.7
Nc1nc(CC(=O)Nc2ccc(CCNC[C@H](O)c3ccccc3)cc2)cs1 | 81.2
COc1ccc(C[C@@H]2c3cc(OC)c(OC)cc3CC[N@+]2(C)CCC(=O)OCCCCCOC(=O)CC[N@@+]2(C)CCc3cc(OC)c(OC)cc3[C@H]2Cc2ccc(OC)c(OC)c2)cc1OC | 85.8

Sample 3 — read-out: enzyme activity; action: inhibitor; tested at: 20 µM
Target: Replicase polyprotein 1ab, polymerase (rep, Severe acute respiratory syndrome coronavirus 2, UniProt P0DTD1)
Compound | inhibition [%]
CCCCCCCCCCCCC/C=C/[C@@H](O)[C@@H](N)COP(=O)([O-])OCC[N+](C)(C)C | -1.22
COc1ccc2c(c1)-c1nn(CCCN(C)C)c3ccc([N+](=O)[O-])c(c13)N2 | 30.5
N=C(N)NC(=N)NCCc1ccccc1 | 25.4
CCNC1(C(N)=O)CCN(c2ncnc3c2nc(-c2ccccc2Cl)n3-c2ccc(Cl)cc2)CC1 | 0.63
CCS(=O)(=O)N1CCN(c2ccc(Nc3ncc(C(N)=O)c(NC4CC4)n3)cc2)CC1 | 3.51
Cc1c(-c2ccnn2C)cc(C(=O)NCc2ccc(S(C)(=O)=O)cn2)c(=O)n1-c1cccc(C(F)(F)F)c1 | -3.28
CC(=O)O/N=C1\C(=O)N(Cc2cc(Cl)ccc2Cl)c2ccc(Cl)cc21 | 0.21
N#Cc1c[nH]c2c(C(=O)N3CCN(CCc4ccc(F)cc4)CC3)cccc12 | 3.56
C/C(=C\c1ccc(C(=O)O)cc1)c1ccc2c(c1)C(C)(C)CCC2(C)C | -2.05
CCOC(=O)c1ccccc1OC(=O)CCCCCCCC(=O)Oc1ccccc1C(=O)OCC | 6.81
O=C(Nc1cc(C(F)(F)F)cc(C(F)(F)F)c1)c1cc(Cl)ccc1O | -5.33
CN(C)CCCCSC(=N)N | 13
CC(=O)[C@H]1CC[C@H]2[C@@H]3CC=C4C[C@@H](OC(=O)CCC(=O)O)CC[C@]4(C)[C@H]3CC[C@]12C | -2.02
CC(C)c1ccc2c(c1)CC[C@H]1[C@](C)(CN)CCC[C@]21C | 8.33
OCC(Br)(Br)Br | 0.89
CC(C)NC(=N)NC(=N)Nc1ccc(Cl)cc1 | 0.95
Cc1cc(OCC(=O)O)cc(C)c1Cc1ccc(O)c(C(C)C)c1 | -2.37
Cc1ccsc1C(=CCCN1CCC[C@@H](C(=O)O)C1)c1sccc1C | -1.88
Oc1ccc(Nc2nc(-c3ccc(Cl)cc3)cs2)cc1 | -2.28
C=CCN1CCc2cc(O)c(O)cc2C(c2ccccc2)C1 (stereo not drawn) | 1.82
CCN(CCCc1ccccc1)CCCc1ccccc1 | 7.84
COc1cc(C(=O)NC2CCCNC2)cc(OC)c1OC (stereo not drawn) | -0.5
CCn1c(-c2nonc2N)nc2cncc(C(=O)N3CC[C@H](N)C3)c21 | 5.01
CCCCCCNC(=O)Nc1ccc(S(=O)(=O)Nc2ccc(CCNC[C@H](O)COc3ccc(O)cc3)cc2)cc1 | 3.2
O=C(NC1CCN(CCc2c[nH]c3ccccc23)CC1)c1ccccc1 | -7.15

Sample 4 — method: protein binding microarray; form: double-stranded DNA, one strand shown; sample: in vitro; tested at: not given; reference: not given; reading: higher = stronger binding
Target: Histone acetyltransferase KAT6A, both winged helices, GST fusion (KAT6A, Homo sapiens, UniProt Q92794, residues 1-181)
Setting: 8-mer, flanks averaged, mean of 2 arrays, mostly near background
Residues (chain): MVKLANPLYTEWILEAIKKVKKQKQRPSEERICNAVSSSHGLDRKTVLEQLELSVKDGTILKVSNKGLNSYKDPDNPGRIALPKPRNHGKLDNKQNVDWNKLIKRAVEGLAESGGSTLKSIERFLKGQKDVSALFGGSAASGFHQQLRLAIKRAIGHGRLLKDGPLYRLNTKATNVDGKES
Strand | E-score
CGAAGGCC | -0.022
CTCCCAAC | -0.128
CCTTTTGC | -0.0396
AGCGACAG | 0.134
CCCGACCA | -0.03
CGGCGTGC | 0.268
CTCGTCAG | -0.0718
ATGTTTCA | 0.0998

Sample 5 — method: RNA Bind-n-Seq; form: RNA; sample: in vitro; tested at: not given; reference: input RNA pool; reading: higher = stronger binding
Target: RING finger protein unkempt homolog, zinc fingers 1-6, GST-SBP tag (UNK, Homo sapiens, UniProt Q9C0B0, residues 30-357)
Setting: RNA with constant flanks, human-mouse chimeric sites, ends assumed
All sequences stand within: GGGAGUUCUACAGUCCGACGAUC … CAACAGAGGAUUGAGCAUCA
Construct (chain): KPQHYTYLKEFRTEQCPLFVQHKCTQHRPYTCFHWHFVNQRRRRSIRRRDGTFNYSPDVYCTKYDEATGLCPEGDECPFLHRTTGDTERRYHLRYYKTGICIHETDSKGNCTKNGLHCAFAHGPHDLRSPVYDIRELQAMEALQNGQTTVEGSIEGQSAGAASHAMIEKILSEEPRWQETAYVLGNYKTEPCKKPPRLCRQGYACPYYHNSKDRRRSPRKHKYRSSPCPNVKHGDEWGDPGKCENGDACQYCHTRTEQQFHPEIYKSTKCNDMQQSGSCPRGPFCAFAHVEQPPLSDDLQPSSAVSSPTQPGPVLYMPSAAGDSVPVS
Strand | bound/input enrichment
AGUGUGCAGGAAUUCAUGACCUUUACAAGUCAACUGAUUGUGGAACGCUCGGGGAAAGGCACUAGAGCUUCUGUCAAAGAACAAGAGUAUCUGUGCCAUGUCUACGUCCGGAGCGACAGU | 0.072 ratio
UCAGAAGCUGUGCUGGGUCACUUUCCGUAUCCAGAUCCUUCACAGUGGACAGAUGAAGAACUGGGAAUCCCUCCUGAUGACGAGGACUGACACUGUAAACUCUCUGGACGAGUAGGAGCA | 0.68 ratio
GUGACUGGUGUUAAGAUUUCCCCUCAGCAAAGAAGUGUAGCAGUGACCAUAAUUCCAUCUGUGGUGAGUGCCAGUCAGAUUGUGGAGCUGGUCCCAGAACUCAGUUUAGACAUGGGAACU | 0.414 ratio
UGUAGUUUCUUGAUUUAUCAUUUUUCUCUUUUCUUUCAGAUCGUCAGGAAAAGCCUAAAGAUUAGGUUGUAAGAAAAGAAAAUAGAAUGUUUCGAAGACCUGUGUUACAGGUAUUUCGUC | 0.585 ratio
GGCCUGGGACCGUCCUGGGCUAGUACAAUAGCGGCAGGUGGAGGCUCGAGAGGAAAGUUUGUUAGUGGAGGCAGUGGUAGAGGCCGUCAUGUACGGUCCUUUACUCGUAAAAAUCCUUCU | 0.284 ratio
AUUGUUGAAGCGAAUCCACUUUUAGAAGCAUUUGGAAAUGCAAAGACUGUUCGCAACAAUAAUAGCAGUCGAUUUGGAAAAUUUGUAGAAAUUCAUUUUAAUGAAAAGAGUUCGGUUGUU | 0.61 ratio
AGGAGGAGGUUAAAGGGUGAGAGUGGGGUGGAAGACUGUGUCAUGGCUCUGGAGACACUGUUCAGUGUCCUGCUUUCUCUGUGCAGACUGAUGGCCCCCUACACACCCUUUCUGACUGAG | 0.0649 ratio
AGUGUGCAGGAAUUCAUGACCUUUACAAGUCAACUGAUUGUGGAACGCUCGGGGAAAGGCAGCAGAGCUUCUGUCAAAGAACAAGAGUAUCUGUGCCACGUCUACGUCCGGAGCGACAGU | 0.0833 ratio

Sample 6 — method: protein-binding microarray; form: double-stranded DNA, one strand shown; sample: in vitro; tested at: 250 nM; setting: 60-bp whole probe; together with: salmon DNA 0.4 mg/ml; reference: random background probes; reading: higher = stronger binding; all sequences stand within: GCCTAGCAC … GTCTTGATTCGCTTGACGCTGCTG
Target: Interferon regulatory factor 7, full length, phosphomimetic (IRF7, Homo sapiens, UniProt Q92985, residues 1-503, S101K/S471D/S472D/S475D/S476D/S477D/S483D/S484D/S487D)
Chain of UniProt Q92985 (whole entry, unmodified, looked up): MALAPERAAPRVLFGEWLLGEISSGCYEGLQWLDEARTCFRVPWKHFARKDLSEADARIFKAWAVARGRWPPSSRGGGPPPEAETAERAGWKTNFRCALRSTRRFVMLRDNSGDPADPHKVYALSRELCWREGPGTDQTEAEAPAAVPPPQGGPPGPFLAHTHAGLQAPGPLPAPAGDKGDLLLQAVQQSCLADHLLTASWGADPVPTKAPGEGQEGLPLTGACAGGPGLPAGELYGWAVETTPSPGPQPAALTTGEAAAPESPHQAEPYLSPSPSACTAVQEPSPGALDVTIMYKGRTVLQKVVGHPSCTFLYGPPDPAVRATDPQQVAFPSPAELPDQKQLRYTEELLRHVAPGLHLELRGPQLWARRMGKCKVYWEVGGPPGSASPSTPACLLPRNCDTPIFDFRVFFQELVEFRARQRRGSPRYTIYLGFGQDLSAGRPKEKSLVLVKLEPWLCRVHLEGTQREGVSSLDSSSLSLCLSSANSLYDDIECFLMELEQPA
Strand | log fluorescence [z-score]
GACGATATCAGTTTCGATACGTGCTAG | 7.34
GACGGTCTCCTACTGGTGACGTGCTAG | -0.704
CCCCTACTGTATTTGGCCAGGTGCTAG | 0.139
GGCGGACTGGGTATCGGGACGTGCTAG | -0.521
GTTTCATTCCTGATCTCTGGGTGCTAG | 5.29
TTAGATATCGGGTATCGACTAGTGCTA | 0.188
TTAGATTTTGGGACTGGATTAGTGCTA | 0.189
GACAGTCTCGGACTGGGGACGTGCTAG | 0.0302

Some of these lines once more (sample 3):
Compound | inhibition [%]
N=C(N)NC(=N)NCCc1ccccc1 | 25.4
CCNC1(C(N)=O)CCN(c2ncnc3c2nc(-c2ccccc2Cl)n3-c2ccc(Cl)cc2)CC1 | 0.63
CCS(=O)(=O)N1CCN(c2ccc(Nc3ncc(C(N)=O)c(NC4CC4)n3)cc2)CC1 | 3.51
Cc1c(-c2ccnn2C)cc(C(=O)NCc2ccc(S(C)(=O)=O)cn2)c(=O)n1-c1cccc(C(F)(F)F)c1 | -3.28
CC(=O)O/N=C1\C(=O)N(Cc2cc(Cl)ccc2Cl)c2ccc(Cl)cc21 | 0.21
N#Cc1c[nH]c2c(C(=O)N3CCN(CCc4ccc(F)cc4)CC3)cccc12 | 3.56
